Assay results collected from several papers.
Each line is one published result; not all experiments were run side by side. ± marks the error that the study gave.
PPARG ligand-binding domain: Peroxisome proliferator-activated receptor gamma, ligand-binding domain (PPARG, Homo sapiens, UniProt P37231)
PPARG: Peroxisome proliferator-activated receptor gamma (PPARG, Homo sapiens, UniProt P37231)
Rhomboid protease AarA: Rhomboid protease AarA (Providencia stuartii, UniProt P46116)
UniProt P46116, sequence (whole entry, looked up): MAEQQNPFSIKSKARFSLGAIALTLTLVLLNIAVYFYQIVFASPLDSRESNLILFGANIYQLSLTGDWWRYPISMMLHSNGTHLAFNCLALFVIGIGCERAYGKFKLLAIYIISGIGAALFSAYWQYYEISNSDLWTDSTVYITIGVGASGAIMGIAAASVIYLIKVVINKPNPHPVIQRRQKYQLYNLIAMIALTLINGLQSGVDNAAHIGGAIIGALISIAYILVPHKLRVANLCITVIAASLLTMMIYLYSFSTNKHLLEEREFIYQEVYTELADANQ
UniProt P07711, sequence (whole entry, looked up): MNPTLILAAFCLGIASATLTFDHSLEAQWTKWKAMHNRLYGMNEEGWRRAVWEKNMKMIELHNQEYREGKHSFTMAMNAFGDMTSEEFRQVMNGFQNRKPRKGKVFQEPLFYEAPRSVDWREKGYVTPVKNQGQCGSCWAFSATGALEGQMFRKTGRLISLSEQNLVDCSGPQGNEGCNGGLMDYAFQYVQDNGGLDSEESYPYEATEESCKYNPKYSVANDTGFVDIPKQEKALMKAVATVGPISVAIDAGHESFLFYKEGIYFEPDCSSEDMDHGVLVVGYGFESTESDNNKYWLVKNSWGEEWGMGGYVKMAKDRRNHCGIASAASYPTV
UniProt Q06418, sequence (whole entry, looked up): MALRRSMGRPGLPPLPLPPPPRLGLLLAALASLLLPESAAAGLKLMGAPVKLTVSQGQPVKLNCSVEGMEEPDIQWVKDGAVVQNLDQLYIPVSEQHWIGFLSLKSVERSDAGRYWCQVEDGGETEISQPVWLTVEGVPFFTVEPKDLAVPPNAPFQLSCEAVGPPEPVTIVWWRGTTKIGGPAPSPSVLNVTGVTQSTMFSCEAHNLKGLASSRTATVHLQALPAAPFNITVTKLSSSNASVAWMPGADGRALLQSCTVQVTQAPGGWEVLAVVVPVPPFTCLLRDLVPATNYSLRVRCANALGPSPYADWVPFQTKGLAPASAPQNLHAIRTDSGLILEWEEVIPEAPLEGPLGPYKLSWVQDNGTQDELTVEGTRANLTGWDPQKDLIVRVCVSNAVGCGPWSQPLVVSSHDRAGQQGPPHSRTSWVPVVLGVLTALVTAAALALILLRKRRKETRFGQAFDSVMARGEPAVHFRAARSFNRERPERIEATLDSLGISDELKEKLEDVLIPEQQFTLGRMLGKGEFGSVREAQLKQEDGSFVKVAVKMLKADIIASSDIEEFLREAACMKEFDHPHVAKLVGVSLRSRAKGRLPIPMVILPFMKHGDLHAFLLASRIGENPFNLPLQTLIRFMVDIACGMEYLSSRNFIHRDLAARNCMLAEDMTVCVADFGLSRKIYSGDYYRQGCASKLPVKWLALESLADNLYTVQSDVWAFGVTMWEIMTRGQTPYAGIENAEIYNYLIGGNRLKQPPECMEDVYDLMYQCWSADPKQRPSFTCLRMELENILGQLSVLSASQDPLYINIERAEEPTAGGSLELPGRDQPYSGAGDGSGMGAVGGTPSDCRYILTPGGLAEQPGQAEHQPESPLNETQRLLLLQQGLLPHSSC
UniProt P43358, sequence (whole entry, looked up): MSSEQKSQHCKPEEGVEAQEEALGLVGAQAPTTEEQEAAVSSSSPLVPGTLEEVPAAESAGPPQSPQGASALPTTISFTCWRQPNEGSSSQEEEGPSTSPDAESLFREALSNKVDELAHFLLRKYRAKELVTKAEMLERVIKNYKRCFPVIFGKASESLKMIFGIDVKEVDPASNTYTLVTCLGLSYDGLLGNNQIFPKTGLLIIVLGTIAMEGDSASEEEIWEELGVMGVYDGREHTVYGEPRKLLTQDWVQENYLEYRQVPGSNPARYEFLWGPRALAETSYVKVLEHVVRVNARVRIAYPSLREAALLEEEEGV
UniProt P04406, sequence (whole entry, looked up): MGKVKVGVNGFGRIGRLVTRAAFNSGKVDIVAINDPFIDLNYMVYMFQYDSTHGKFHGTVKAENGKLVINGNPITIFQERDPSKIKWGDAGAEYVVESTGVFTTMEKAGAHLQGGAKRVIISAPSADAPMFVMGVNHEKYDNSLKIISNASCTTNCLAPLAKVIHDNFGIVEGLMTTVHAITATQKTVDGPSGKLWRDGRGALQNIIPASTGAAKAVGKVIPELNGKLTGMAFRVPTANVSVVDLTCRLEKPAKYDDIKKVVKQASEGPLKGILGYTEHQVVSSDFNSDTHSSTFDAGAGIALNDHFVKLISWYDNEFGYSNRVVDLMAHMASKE
UniProt Q13547, sequence (whole entry, looked up): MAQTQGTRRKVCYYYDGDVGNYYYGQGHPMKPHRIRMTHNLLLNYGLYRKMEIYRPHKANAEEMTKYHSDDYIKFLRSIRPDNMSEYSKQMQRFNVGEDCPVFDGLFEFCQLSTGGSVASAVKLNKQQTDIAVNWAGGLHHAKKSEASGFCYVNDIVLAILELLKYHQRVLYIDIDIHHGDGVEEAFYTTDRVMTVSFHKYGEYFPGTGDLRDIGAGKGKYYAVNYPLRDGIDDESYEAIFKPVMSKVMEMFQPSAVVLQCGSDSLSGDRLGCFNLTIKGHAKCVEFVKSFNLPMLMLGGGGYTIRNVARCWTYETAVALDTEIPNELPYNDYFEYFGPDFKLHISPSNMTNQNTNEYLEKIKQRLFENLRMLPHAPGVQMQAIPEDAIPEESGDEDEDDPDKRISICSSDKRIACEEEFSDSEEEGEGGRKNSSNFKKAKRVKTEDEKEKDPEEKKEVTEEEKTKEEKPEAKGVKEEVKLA
UniProt P51692, sequence (whole entry, looked up): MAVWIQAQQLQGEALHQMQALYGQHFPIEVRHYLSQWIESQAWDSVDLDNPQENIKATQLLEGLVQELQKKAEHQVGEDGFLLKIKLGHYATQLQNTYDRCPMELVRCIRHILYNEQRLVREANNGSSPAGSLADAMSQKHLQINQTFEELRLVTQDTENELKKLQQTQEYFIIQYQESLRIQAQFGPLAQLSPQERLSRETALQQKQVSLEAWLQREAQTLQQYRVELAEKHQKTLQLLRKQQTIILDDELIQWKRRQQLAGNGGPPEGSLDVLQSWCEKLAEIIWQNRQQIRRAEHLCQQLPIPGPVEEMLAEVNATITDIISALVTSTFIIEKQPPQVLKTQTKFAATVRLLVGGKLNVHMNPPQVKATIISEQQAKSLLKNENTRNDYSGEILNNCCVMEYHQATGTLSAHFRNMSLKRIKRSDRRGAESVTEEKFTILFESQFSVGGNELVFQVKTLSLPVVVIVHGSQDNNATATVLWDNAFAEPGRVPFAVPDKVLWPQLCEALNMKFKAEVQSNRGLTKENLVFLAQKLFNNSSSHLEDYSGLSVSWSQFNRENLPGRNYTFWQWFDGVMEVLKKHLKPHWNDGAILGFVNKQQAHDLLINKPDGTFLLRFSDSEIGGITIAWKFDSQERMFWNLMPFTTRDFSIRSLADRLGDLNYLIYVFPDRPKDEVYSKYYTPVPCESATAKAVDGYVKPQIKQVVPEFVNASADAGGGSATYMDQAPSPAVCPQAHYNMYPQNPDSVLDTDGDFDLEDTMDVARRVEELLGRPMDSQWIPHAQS
UniProt Q5U431, sequence (whole entry, looked up): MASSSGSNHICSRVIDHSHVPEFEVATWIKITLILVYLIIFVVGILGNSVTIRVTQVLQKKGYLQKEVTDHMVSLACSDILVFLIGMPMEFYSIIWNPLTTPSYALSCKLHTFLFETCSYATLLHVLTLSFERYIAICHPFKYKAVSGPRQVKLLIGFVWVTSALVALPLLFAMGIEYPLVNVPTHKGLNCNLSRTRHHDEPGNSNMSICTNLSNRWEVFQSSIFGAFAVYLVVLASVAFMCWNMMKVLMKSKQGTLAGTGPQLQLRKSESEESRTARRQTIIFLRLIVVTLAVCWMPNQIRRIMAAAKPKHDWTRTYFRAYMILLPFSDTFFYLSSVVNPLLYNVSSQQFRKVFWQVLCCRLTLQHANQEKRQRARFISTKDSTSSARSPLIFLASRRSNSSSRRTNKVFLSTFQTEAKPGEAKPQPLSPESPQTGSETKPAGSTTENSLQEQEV

SMILES | target or system | test | system | conditions | how to read | measurement | value
CC(CCC(=O)NCC(=O)O)C1CCC2C3C(O)CC4CC(OS(=O)(=O)O)CCC4(C)C3CCC12C (centres unmarked) | G-protein coupled receptor 39 (Mus musculus, UniProt Q5U431) | calcium signal, agonist, fluorescence | – | – | – | EC50 | > 200000 nM
Cc1c(Cc2cccc(OC(C)(C)C(=O)O)c2)c2ccc(C(=O)N[C@@H](C)c3cccc(C4CC4)c3)cc2n1C | PPARG ligand-binding domain | reporter gene, luciferase reporter | HEK293T, Gal4-PPARγ LBD | – | – | IC50 | 1350 nM
CCCSc1nc(Sc2nnc(N)s2)c2nnn(CCO)c2n1 | KDM1A (Homo sapiens, UniProt O60341) | enzyme activity, inhibitor, fluorescence | – | – | – | IC50 | 2100 nM
CCOC(=O)/C=C/C(=O)[C@H](CC(C)C)NC(=O)[C@H](Cc1ccccc1)NC(=O)[C@H](Cc1ccccc1)n1cc(CCCCC2=C3C(C)=CC(C)=[N+]3[B-](F)(F)n3c(C)cc(C)c32)nn1 (mixture of isomers) | Procathepsin L (CTSL, Homo sapiens, UniProt P07711) | enzyme activity, inhibitor | – | – | – | IC50 | 3140 nM
Nc1ncc(-c2cc(-c3cnn(CC(F)(F)F)c3)ncc2F)nc1C(=O)NC1CNCC(F)C1 (centres unmarked) | HUNK | KINOMEscan | – | 1 µM | baseline: DMSO control | remaining binding | 94%
COC1CN([C@H]2CC[C@H]([C@@]3(C)Oc4c(Cl)cc(C(=O)NCc5c(SC)cc(C)[nH]c5=O)c(C)c4O3)CC2)C1 | – | RNA-seq, refers to: RANBP17 mouse homolog | mouse, HT-1376 xenograft, whole blood | dose not given | baseline: vehicle | log2 fold change | 2.01
Cc1c(Cc2cccc(OC(C)(C)C(=O)O)c2)c2ccc(C(=O)N[C@@H](C)c3cccc(C(C)C)c3)cc2n1C | PPARG ligand-binding domain | reporter gene, luciferase reporter | HEK293T, Gal4-PPARγ LBD | – | – | IC50 | 380 nM
Cc1cc(C)nc(NC(=S)N2CCN(c3ccncc3)CC2)c1 | GAPDH (Homo sapiens, UniProt P04406) | enzyme activity, inhibitor | – | – | – | IC50 | > 100000 nM
CC[C@H](C)[C@@H]1NC(=O)[C@H](Cc2ccc(O)cc2)NC(=O)CSC[C@@H](C(N)=O)NC(=O)[C@H](CC(N)=O)NC(=O)[C@H](Cc2c[nH]cn2)NC(=O)[C@H](Cc2ccc(O)cc2)NC(=O)[C@H](CC(=O)O)NC(=O)[C@H](Cc2ccc(O)cc2)NC(=O)[C@H](CC(C)C)NC(=O)[C@H](CCCCN)NC1=O | Melanoma-associated antigen 4, MAGE homology domain (Homo sapiens, UniProt P43358) | binding, inhibitor, TR-FRET displacement | – | together with: Alexa647-MTP-1 | – | IC50 | 18.9 ± 7.1 nM
Cc1nn(-c2cccc(N)c2)c(=O)c2cnc(Nc3ccc(N4CCNCC4)cc3)nc12 | TYRO3 (Homo sapiens, UniProt Q06418) | enzyme activity, inhibitor | – | – | – | IC50 | 2070 nM
COc1ccc(O)c(C(=O)c2cnn(-c3oc(C)nc3C#N)c2)c1 | Plasmodium falciparum | parasite growth, parasite lactate dehydrogenase | NF54 | – | – | IC50 | > 6000 nM
CC(C)Cn1cc(Cc2cccc(OC(C)(C)C(=O)O)c2)c2ccc(C(=O)N[C@@H](C)c3cccc(C(C)(C)C)c3)cc21 | PPARG | ligand displacement, TR-FRET | – | – | – | IC50 | 24 nM
CC(CC1CC2CCC1C2)Nc1nn2c(=O)ccnc2s1 (centres unmarked) | PPM1D (Homo sapiens, UniProt O15297) | enzyme activity, inhibitor | – | – | – | IC50 | 11500 nM
Cc1cccc(NC(=O)C(C(F)(F)F)C(F)(F)F)c1 | Rhomboid protease AarA | enzyme activity, inhibitor, fluorescence | – | – | – | IC50 | 18300 nM
Cc1nc2c(F)cc(-c3nc(Nc4ccc(NC(=O)CCCCCCC(=O)NO)cc4)ncc3F)cc2n1C(C)C | HDAC1 (Homo sapiens, UniProt Q13547) | enzyme activity, inhibitor | – | – | – | IC50 | 7.4 nM
C=CC(=O)Nc1cccc(Cn2ncc3cnc(Nc4cnn(CCOC)c4)nc32)c1 | MEK6 human | binding, KINOMEscan | – | 100 nM | lower = stronger binding | percent of control | 86%
CC(C)C[C@H](NC(=O)[C@@H](CCCCNC(=O)[C@@H](Cc1ccccc1)NC(=O)CCCCCNC(=O)CN1CCN(CC(=O)O)CCN(CC(=O)O)CCN(CC(=O)O)CC1)NC(=O)[C@H](Cc1ccc(O)cc1)NC(=O)[C@H](CO)NC(=O)[C@H](Cc1c[nH]c2ccccc12)NC(=O)[C@H](Cc1c[nH]cn1)NC(=O)[C@@H]1CCC(=O)N1)C(=O)N[C@@H](CCCNC(=N)N)C(=O)N1CCC[C@H]1C(=O)NCC(N)=O [indium-111 labelled] | – | – | female athymic nude mice, liver | intravenous, 0.037 MBq, 4 h | – | tissue uptake | 0.36 ± 0.04 %ID/g
O=C(C(C(F)(F)F)C(F)(F)F)N1CCc2ccccc21 | Rhomboid protease AarA | enzyme activity, inhibitor, fluorescence | – | – | – | IC50 | 3600 nM
Cc1c(Cc2cccc(C(C)(C)C(=O)O)c2)c2ccc(C(=O)N[C@@H](C)c3ccc(C(C)(C)C)cc3)cc2n1C | PPARG | ligand displacement, TR-FRET | – | – | – | IC50 | 171 nM
COc1ccc(OC)c2c1CN(c1cn[nH]c(=O)c1Cl)CC2O (centres unmarked) | Plasmodium falciparum | parasite growth, parasite lactate dehydrogenase | NF54 | – | – | IC50 | > 6000 nM
O=C(CCCCc1ccc(OP(=O)(O)O)c(OP(=O)(O)O)c1)N1CCCCC1 | Signal transducer and activator of transcription 5B, SH2 (STAT5B, Homo sapiens, UniProt P51692) | ligand displacement, FP | – | – | – | IC50 | 1530 nM
Cc1c(Cc2cccc(OC(C)(C)C(=O)O)c2)c2ccc(C(=O)N[C@@H](C)c3ccc(C(C)C)cc3)cc2n1C | PPARG | ligand displacement, TR-FRET | – | – | – | IC50 | 2 nM
O=C(NCc1ccccc1)C(C(F)(F)F)C(F)(F)F | Rhomboid protease AarA | enzyme activity, inhibitor, fluorescence | – | – | – | IC50 | 20000 nM

Repeated from above:
SMILES | target or system | test | system | conditions | how to read | measurement | value
Nc1ncc(-c2cc(-c3cnn(CC(F)(F)F)c3)ncc2F)nc1C(=O)NC1CNCC(F)C1 (centres unmarked) | HUNK | KINOMEscan | – | 1 µM | baseline: DMSO control | remaining binding | 94%
O=C(C(C(F)(F)F)C(F)(F)F)N1CCc2ccccc21 | Rhomboid protease AarA | enzyme activity, inhibitor, fluorescence | – | – | – | IC50 | 3600 nM
